# Assay results of several laboratories.
# Every numbered part comes from another study and shows a few of its results, in no order. Changes are numbered by the printed parent chain.
# UniProt Q13557, sequence (whole entry, looked up): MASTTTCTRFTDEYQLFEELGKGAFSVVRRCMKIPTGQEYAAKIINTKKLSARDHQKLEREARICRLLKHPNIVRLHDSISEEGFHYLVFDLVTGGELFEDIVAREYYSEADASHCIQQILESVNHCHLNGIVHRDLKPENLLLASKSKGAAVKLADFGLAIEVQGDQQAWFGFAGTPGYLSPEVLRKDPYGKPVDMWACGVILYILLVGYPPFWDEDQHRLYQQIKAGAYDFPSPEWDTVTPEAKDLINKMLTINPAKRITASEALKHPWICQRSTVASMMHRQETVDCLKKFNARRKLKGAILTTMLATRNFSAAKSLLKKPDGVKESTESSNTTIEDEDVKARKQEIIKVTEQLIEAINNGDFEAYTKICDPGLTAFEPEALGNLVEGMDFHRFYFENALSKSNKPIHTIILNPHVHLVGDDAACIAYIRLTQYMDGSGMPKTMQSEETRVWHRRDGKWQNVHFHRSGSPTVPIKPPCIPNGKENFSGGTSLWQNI
# UniProt P0C1S8, sequence (whole entry, looked up): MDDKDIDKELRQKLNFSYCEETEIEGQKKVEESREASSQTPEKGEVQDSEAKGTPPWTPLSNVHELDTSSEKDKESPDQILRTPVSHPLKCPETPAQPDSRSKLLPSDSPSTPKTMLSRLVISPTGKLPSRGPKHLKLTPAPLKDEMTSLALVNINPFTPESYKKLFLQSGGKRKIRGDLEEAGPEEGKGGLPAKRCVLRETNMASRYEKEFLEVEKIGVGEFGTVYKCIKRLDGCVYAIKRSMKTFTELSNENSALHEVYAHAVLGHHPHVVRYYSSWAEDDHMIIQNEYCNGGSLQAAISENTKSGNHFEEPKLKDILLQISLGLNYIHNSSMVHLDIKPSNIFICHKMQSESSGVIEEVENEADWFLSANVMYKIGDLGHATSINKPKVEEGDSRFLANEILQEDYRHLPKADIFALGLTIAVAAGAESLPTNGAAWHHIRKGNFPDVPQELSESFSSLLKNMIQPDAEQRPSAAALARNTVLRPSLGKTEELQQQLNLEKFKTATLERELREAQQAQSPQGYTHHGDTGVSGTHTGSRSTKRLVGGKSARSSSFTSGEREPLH
# UniProt Q96Q40, sequence (whole entry, looked up): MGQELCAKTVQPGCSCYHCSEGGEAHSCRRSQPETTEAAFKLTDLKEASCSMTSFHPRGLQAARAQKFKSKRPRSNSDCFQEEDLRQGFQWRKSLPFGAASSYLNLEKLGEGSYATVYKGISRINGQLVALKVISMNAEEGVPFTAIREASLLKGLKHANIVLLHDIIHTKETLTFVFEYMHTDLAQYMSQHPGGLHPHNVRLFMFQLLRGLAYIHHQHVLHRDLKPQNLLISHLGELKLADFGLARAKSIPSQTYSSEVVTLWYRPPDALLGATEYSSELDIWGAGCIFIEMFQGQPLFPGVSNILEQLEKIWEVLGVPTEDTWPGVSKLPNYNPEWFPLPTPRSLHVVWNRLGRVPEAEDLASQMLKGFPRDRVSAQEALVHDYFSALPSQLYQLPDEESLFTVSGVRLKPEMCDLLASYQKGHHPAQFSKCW
# UniProt Q9BUB5, sequence (whole entry, looked up): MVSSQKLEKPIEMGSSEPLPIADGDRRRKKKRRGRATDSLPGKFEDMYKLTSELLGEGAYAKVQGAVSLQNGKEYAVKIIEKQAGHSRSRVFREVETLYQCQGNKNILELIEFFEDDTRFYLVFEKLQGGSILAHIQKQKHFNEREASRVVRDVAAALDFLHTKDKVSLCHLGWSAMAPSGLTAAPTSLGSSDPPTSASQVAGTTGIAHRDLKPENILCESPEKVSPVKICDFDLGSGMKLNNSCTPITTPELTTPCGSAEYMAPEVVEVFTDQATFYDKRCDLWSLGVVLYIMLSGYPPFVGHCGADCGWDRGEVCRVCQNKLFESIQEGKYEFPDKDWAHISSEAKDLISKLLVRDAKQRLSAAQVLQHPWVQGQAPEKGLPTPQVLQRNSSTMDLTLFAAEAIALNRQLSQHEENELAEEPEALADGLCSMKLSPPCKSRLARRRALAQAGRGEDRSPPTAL
# UniProt P37173, sequence (whole entry, looked up): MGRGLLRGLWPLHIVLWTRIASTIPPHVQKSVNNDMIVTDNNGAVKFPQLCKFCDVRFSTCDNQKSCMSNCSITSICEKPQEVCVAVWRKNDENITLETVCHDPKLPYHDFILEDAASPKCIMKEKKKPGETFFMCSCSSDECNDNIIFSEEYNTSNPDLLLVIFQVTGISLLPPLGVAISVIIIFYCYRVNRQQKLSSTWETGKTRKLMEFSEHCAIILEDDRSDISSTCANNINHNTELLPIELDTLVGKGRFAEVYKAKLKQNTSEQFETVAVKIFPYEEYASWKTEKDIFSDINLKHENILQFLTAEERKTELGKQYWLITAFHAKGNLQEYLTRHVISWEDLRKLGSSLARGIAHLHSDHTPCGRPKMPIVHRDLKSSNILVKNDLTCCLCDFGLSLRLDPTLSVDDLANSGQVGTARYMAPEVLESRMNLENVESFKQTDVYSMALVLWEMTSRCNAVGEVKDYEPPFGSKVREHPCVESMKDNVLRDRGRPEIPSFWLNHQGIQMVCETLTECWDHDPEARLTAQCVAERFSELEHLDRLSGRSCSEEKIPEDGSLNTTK
# UniProt Q9Y2H1, sequence (whole entry, looked up): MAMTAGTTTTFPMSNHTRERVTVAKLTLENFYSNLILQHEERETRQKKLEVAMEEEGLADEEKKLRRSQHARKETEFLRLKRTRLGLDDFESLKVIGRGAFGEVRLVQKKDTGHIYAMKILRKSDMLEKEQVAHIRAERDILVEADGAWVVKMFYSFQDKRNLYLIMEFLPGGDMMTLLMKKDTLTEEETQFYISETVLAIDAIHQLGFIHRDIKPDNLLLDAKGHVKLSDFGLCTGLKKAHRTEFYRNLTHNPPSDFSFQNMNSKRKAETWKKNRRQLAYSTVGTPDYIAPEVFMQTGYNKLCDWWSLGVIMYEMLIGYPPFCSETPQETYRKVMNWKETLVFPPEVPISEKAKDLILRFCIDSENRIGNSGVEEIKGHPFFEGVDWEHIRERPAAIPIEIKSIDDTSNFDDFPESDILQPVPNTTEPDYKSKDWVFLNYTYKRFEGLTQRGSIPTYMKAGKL
# UniProt P35626, sequence (whole entry, looked up): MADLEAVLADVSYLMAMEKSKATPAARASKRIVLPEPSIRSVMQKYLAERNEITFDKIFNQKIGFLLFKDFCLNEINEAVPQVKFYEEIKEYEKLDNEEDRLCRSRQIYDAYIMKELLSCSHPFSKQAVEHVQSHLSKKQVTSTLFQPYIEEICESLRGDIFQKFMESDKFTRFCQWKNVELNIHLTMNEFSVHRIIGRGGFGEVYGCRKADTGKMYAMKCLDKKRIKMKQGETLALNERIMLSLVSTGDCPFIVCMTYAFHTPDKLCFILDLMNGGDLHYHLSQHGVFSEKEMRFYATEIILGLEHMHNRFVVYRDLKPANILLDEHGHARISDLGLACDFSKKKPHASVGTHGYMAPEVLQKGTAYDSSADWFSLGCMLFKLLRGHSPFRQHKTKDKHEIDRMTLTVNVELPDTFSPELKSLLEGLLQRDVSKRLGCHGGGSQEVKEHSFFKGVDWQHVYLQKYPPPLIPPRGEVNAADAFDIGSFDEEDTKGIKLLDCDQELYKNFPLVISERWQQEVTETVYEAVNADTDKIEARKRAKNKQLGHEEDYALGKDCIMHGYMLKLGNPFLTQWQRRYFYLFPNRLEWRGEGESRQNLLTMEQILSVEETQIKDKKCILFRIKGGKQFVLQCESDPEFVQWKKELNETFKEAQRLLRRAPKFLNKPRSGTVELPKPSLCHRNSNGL
# UniProt Q59H18, sequence (whole entry, looked up): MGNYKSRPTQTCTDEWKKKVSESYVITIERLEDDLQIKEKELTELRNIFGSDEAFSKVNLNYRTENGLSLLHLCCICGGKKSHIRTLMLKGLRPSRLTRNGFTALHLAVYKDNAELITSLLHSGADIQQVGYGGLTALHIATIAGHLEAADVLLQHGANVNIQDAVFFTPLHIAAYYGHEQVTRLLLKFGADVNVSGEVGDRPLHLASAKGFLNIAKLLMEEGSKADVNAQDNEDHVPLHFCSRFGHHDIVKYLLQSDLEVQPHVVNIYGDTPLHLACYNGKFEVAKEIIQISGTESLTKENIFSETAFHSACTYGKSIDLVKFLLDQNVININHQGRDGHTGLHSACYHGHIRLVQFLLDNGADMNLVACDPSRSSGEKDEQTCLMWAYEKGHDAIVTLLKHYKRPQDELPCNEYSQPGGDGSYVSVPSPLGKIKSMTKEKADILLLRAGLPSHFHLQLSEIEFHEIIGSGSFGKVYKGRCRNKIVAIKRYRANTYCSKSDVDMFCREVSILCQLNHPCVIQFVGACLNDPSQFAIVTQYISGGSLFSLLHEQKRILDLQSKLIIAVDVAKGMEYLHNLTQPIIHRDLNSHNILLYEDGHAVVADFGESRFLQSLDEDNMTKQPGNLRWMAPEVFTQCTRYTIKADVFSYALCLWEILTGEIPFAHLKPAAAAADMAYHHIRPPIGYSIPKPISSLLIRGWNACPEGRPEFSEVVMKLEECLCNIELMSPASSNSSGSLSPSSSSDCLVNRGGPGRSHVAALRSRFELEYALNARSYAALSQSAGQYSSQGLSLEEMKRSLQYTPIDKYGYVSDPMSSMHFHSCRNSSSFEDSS
# UniProt Q96GD4, sequence (whole entry, looked up): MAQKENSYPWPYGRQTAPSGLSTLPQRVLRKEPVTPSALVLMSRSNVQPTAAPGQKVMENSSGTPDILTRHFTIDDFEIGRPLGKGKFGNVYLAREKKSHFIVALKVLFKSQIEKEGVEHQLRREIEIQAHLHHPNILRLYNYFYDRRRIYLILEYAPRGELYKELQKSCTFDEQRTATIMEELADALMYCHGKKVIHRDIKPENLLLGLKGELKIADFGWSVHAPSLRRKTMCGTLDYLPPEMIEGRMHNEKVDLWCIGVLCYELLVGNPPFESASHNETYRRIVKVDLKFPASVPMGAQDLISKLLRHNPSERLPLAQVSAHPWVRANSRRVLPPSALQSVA

# Block 1 — effect on: cell-free assay; technique: competition with immobilised ligand; concentration: 1 µM
# Structure (SMILES): CC(=O)Nc1c(C(C)=O)c(=O)n(C)c2nc(-c3ccc(Cl)cc3Cl)c(-c3ccc(Cl)cc3)cc12
target,remaining binding
"Aurora kinase B (AURKB, Homo sapiens, UniProt Q96GD4)",92%
"DSTYK (Homo sapiens, UniProt Q6XUX3)",100%
"MKNK1 (Homo sapiens, UniProt Q9BUB5)",100%
"MAPKAPK2 (Homo sapiens, UniProt P49137)",100%
"CDK15 (Homo sapiens, UniProt Q96Q40)",100%
"WEE2 (Homo sapiens, UniProt P0C1S8)",100%
"PRKX (Homo sapiens, UniProt P51817)",100%
"STK38L (Homo sapiens, UniProt Q9Y2H1)",87%
"KIT (Homo sapiens, UniProt P10721, D816H)",100%
"TNNI3K (Homo sapiens, UniProt Q59H18)",100%

# Block 2 — target: CCNF, cyclin fold, Cln2 fusion (human); technique: yeast growth competition, sequencing; matrix: yeast; setting: strong parent motif; reference: not given; direction: higher = stronger binding
# Starting sequence: SLBP docking peptide (human); ARYKRKLLINDFG; partner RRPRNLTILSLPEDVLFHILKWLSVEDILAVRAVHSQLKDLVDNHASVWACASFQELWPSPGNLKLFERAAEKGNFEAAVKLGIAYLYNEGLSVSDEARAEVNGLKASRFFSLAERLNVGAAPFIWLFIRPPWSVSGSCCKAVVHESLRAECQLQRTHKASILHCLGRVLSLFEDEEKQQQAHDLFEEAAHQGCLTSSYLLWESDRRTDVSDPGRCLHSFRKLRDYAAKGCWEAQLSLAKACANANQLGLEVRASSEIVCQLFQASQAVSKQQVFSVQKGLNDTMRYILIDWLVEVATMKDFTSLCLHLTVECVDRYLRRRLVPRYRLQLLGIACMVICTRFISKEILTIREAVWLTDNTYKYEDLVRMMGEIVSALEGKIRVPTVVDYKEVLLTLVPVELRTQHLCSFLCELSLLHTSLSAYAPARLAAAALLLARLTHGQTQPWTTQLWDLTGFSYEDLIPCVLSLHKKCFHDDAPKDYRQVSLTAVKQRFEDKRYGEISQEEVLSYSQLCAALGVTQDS
Substitution,normalised enrichment score
L7Y,2.02
Y3M,1.57
D11H,0.975
K4V,1.86
G13E,1.16
Y3R,1.63
N10V,1.64
R2A,1.25

# Block 3 — Compound: Cn1cnc2cc3c(Nc4cccc(Br)c4)ncnc3cc21; effect on: enzyme activity; mode: inhibitor; concentration: 0.5 µM; reference: control
target,remaining activity [%]
"TGFBR1 (Homo sapiens, UniProt P36897)",97.6
"CAMK2D (Homo sapiens, UniProt Q13557)",92.2
"Tyrosine-protein kinase Lyn, isoform B (LYN, Homo sapiens, UniProt P07948)",75.8
"Protein kinase C beta type, isoform beta-I (PRKCB, Homo sapiens, UniProt P05771)",100
"DAPK2 (Homo sapiens, UniProt Q9UIK4)",92.5
"STK39 (Homo sapiens, UniProt Q9UEW8)",111
"TGFBR2 (Homo sapiens, UniProt P37173)",98.9
"GRK3 (Homo sapiens, UniProt P35626)",89.9
"PRKACA (Homo sapiens, UniProt P17612)",105
"STK11 (Homo sapiens, UniProt Q15831)",91.1

# Block 4 — target: CEBPE, bZIP domain (human); technique: DHFR protein complementation; matrix: yeast; reference: wild-type JUN-FOS pair; direction: higher = stronger binding
# Setting: single substitutions, most at no-binding floor
# Starting sequence: JUN, bZIP domain (human); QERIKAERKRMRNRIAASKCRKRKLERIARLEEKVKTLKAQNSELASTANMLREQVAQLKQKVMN; partner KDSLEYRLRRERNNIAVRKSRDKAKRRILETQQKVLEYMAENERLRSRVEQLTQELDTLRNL
Substitution,binding fitness
L52P,-1.55 natural log
E44V,-1.27 natural log
L52M,-1.42 natural log
L45H,-1.61 natural log
R53L,-1.14 natural log
A46C,-1.24 natural log
E44Q,-1.15 natural log
V35Q,-1.41 natural log

# For quick reference, copied from above (block 4):
Substitution,binding fitness
E44V,-1.27 natural log
L52M,-1.42 natural log
L45H,-1.61 natural log
R53L,-1.14 natural log
